Assay results from different studies.
Numbers after ± are the reported error.
B1: UGT1A3 (Homo sapiens, UniProt P35503); chain GKVLVVPIDGSHWLSMREVLRELHARGHQAVVLTPEVNMHIKEENFFTLTTYAISWTQDEFDRHVLGHTQLYFETEHFLKKFFRSMAMLNNMSLVYHRSCVELLHNEALIRHLNATSFDVVLTDPVNLCAAVLAKYLSIPTVFFLRNIPCDLDFKGTQCPNPSSYIPRLLTTNSDHMTFMQRVKNMLYPLALSYICHAFSAPYASLASELFQREVSVVDILSHASVWLFRGDFVMDYPRPIMPNMVFIGGINCANRKPLSQEFEAYINASGEHGIVVFSLGSMVSEIPEKKAMAIADALGKIPQTVLWRYTGTRPSNLANNTILVKWLPQNDLLGHPMTRAFITHAGSHGVYESICNGVPMVMMPLFGDQMDNAKRMETKGAGVTLNVLEMTSEDLENALKAVINDKSYKENIMRLSSLHKDRPVEPLDLAVFWVEFVMRHKGAPHLRPAAHDLTWYQYHSLDVIGFLLAVVLTVAFITFKCCAYGYRKCLGKKGRVKKAHKSKTH
B2: UGT1A6 (Homo sapiens, UniProt P19224); chain DKLLVVPQDGSHWLSMKDIVEVLSDRGHEIVVVVPEVNLLLKESKYYTRKIYPVPYDQEELKNRYQSFGNNHFAERSFLTAPQTEYRNNMIVIGLYFINCQSLLQDRDTLNFFKESKFDALFTDPALPCGVILAEYLGLPSVYLFRGFPCSLEHTFSRSPDPVSYIPRCYTKFSDHMTFSQRVANFLVNLLEPYLFYCLFSKYEELASAVLKRDVDIITLYQKVSVWLLRYDFVLEYPRPVMPNMVFIGGINCKKRKDLSQEFEAYINASGEHGIVVFSLGSMVSEIPEKKAMAIADALGKIPQTVLWRYTGTRPSNLANNTILVKWLPQNDLLGHPMTRAFITHAGSHGVYESICNGVPMVMMPLFGDQMDNAKRMETKGAGVTLNVLEMTSEDLENALKAVINDKSYKENIMRLSSLHKDRPVEPLDLAVFWVEFVMRHKGAPHLRPAAHDLTWYQYHSLDVIGFLLAVVLTVAFITFKCCAYGYRKCLGKKGRVKKAHKSKTH

Substance	tested on	assay	system	conditions	scale	measurement	value
secretory leukocyte protease inhibitor	RAW264.7	MTT		0.1 to 10 µg/mL, 24 h	baseline: vehicle	cytotoxicity	not toxic
insulin aspart		ELISA after PEG precipitation, refers to: free insulin aspart	human, type 1 diabetes, serum	subcutaneous, dose not given, least squares mean, single dose		onset of appearance	7.5 min
UGT1A7 (Homo sapiens, UniProt Q9HAW7)	CC(C)=CCc1cc2c(cc1O)O[C@H](c1ccc(O)cc1)CC2=O	steady-state kinetics		pH 7.4		Vmax/Km	536 µL/min/mg
colistin	Klebsiella pneumoniae	broth microdilution	clinical isolate RKI-No_320/16			MIC	32 µg/mL
GSGAGKETEC	human SCRIB PDZ3-4 tandem (MBP fusion)	automated holdup	peptide, crude extract	concentration not given, corrected by standard peak, unit not given	baseline: biotin control resin, higher = stronger binding	binding intensity	0.785
ACDDQNPWRAYLDLLFPTDTLLLDLLW		ex vivo fluorescence imaging	peptide, BALB/c mice, 4T1 tumour-bearing	intravenous, 5 nmol, 24 h post-injection, background-corrected mean fluorescence	baseline: tumour over muscle	contrast index	18.8 ± 4.2
insulin degludec			human	subcutaneous, 0.4 IU/kg, 1 FC level, single dose, reference formulation		AUC0−∞	600 ± 88 ng·h/mL
Ubiquitin fragment (Homo sapiens)		NMR, refers to: Lys27				pKa	11.1
ACEQNPIYWARYADWLFTTPLLLLDLALLVDADEGT		ex vivo fluorescence imaging	peptide, BALB/c mice, 4T1 tumour-bearing, liver	intravenous, 5 nmol, 24 h post-injection	higher = more uptake	mean fluorescence intensity	502 ± 85.5 a.u.
enzyme (Listeria monocytogenes, UniProt A0A0H3GFM5)	Nc1ncnc2c1ncn2[C@@H]1O[C@H](COP(=O)(O)OP(=O)(O)OP(=O)(O)O)[C@@H](O)[C@H]1O	steady-state kinetics		pH 7.5, 37 °C, KCl 500 mM, kcat per active site, positive cooperativity, added: Ti(III) citrate		K0.5	4.4 µM
ptcA (Enterococcus faecalis, UniProt Q837U7)	NC(=O)OP(=O)(O)O	steady-state kinetics		pH 6.9, 22 °C, added: putrescine 5.0 mM		K0.5	101 µM
GSGAGPETLV	human MAGI1-3/6 PDZ construct (MBP fusion)	automated holdup	peptide, crude extract	concentration not given, uncorrected, unit not given	baseline: biotin control resin, higher = stronger binding	binding intensity	0.613
B1 (UGT1A3)	O=c1cc(C(F)(F)F)c2ccc(O)cc2o1	steady-state kinetics		37 °C, not purified		Vmax/Km	11 µL/min/mg
ACEEQNPWARYLEWLFPTETLLLEL		ex vivo fluorescence imaging	peptide, BALB/c mice, 4T1 tumour-bearing	intravenous, 5 nmol, 24 h post-injection, background-corrected mean fluorescence	baseline: tumour over muscle	contrast index	19.1 ± 7.2
B2 (UGT1A6)	O=c1cc(C(F)(F)F)c2ccc(O)cc2o1	steady-state kinetics		37 °C, not purified		Vmax/Km	137 µL/min/mg
pegcetacoplan		refers to: respiratory, thoracic, mediastinal disorders	patients with PNH	dose not given, phase Ib trial		number of TEAEs	8

Repeated from above:
Substance	tested on	assay	system	conditions	scale	measurement	value
B2 (UGT1A6)	O=c1cc(C(F)(F)F)c2ccc(O)cc2o1	steady-state kinetics		37 °C, not purified		Vmax/Km	137 µL/min/mg
colistin	Klebsiella pneumoniae	broth microdilution	clinical isolate RKI-No_320/16			MIC	32 µg/mL
